Measurements collected from several papers.
Parts stem from different laboratories: compare values within a part only.
Sequence of UniProt P07270 (whole entry, looked up): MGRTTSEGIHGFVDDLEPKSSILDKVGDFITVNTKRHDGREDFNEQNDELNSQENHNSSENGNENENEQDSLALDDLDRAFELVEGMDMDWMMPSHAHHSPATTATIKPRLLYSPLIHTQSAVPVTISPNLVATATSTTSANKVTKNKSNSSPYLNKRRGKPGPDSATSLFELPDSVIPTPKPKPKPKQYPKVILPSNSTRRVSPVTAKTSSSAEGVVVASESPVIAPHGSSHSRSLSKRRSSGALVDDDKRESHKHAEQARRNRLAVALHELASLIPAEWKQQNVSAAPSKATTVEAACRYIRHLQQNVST

Block 1 — method: RNA Bind-n-Seq; molecule type: RNA; sample: in vitro; concentration: 20 nM; setting: 6-mer, flanks averaged, single round; added: 150 mM LiCl; baseline: input library; direction: higher = stronger binding
Target: TAR DNA-binding protein 43, full length, His tag (TARDBP, Homo sapiens, UniProt Q13148, residues 1-414)
Oligonucleotide	6-mer enrichment (R)
GGCCGC	1.03
GUGGUU	1.39
UGAAAU	0.901
AAGGCU	0.849

Block 2 — method: protein binding microarray; molecule type: double-stranded DNA, one strand shown; sample: in vitro; concentration: not given; baseline: not given; direction: higher = stronger binding
Target: Histone acetyltransferase KAT6A, winged helix 1, GST fusion (KAT6A, Homo sapiens, UniProt Q92794, residues 1-85)
Setting: 8-mer, flanks averaged, mean of 2 arrays, mostly near background
Construct (chain): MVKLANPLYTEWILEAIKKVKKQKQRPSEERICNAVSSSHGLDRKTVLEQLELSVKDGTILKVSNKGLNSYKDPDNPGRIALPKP
Oligonucleotide	E-score
ATATTGAT	-0.219
GCGCACAA	0.329
ACCCCTTC	-0.0958
GAGGCTAA	-0.137
GGCAGCAA	-0.00536

Other studies, line by line
CBF1 full length, N-terminal tag: Centromere-binding protein 1, full length, N-terminal tag (CBF1, Saccharomyces cerevisiae, UniProt P17106, residues 1-351)
Sequence of UniProt P17106 (whole entry, looked up): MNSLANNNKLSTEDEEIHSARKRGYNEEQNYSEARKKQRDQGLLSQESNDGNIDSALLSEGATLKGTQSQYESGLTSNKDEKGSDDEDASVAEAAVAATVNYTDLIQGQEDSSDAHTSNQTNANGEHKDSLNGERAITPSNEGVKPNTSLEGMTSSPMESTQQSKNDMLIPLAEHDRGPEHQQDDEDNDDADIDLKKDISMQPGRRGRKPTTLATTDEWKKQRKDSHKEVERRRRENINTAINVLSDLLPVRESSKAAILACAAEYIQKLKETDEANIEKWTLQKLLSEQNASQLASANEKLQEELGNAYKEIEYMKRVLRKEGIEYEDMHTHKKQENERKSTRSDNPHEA
Molecule	target	assay	system	conditions	how to read	quantity	result
AATTGTCTAAAATTCGTCGTGCTTTCAGAGACTTGTGTCTTGATTCGCTTGACGCTGCTG	Phosphate system positive regulatory protein PHO4, full length, GST-tagged (PHO4, Saccharomyces cerevisiae, UniProt P07270, residues 1-312)	competition protein-binding microarray	double-stranded DNA, one strand shown, in vitro	2 µM, whole 60-bp probe, lowest competitor level, added: Cbf1 competitor, 0.05 µM	higher = stronger binding	fluorescence intensity	5730 a.u.
PhoQ, residues 284 288 289 292 302 303 SIHMAM	PhoP, residues 12 14 15 18 19 NHFRA (Escherichia coli, UniProt P23836)	Sort-seq, measured: YFP reporter	E. coli	PhoQ-PhoP variant library, added: 10 µM Mg2+	baseline: high Mg2+ state, higher = stronger signaling	fold induction	1.36
GAATGCAATTATTAACACGTTTTCATCCGTTTATAGGTCTTGATTCGCTTGACGCTGCTG	CBF1 full length, N-terminal tag	protein-binding microarray	double-stranded DNA, one strand shown, in vitro	0.8 µM, whole 60-bp probe, no competitor	higher = stronger binding	fluorescence intensity	750 a.u.
GAACAATGCCTCGGAAACCTGATGACGAATTGCTAGGTCTTGATTCGCTTGACGCTGCTG	CBF1 full length, N-terminal tag	protein-binding microarray	double-stranded DNA, one strand shown, in vitro	0.8 µM, whole 60-bp probe, no competitor	higher = stronger binding	fluorescence intensity	527 a.u.

Repeated from above (block 2):
Oligonucleotide	E-score
GGCAGCAA	-0.00536
GAGGCTAA	-0.137
